Results from different studies.
Parts stem from different laboratories: compare values within a part only. Values joined by “and” are separate records of one study, mostly repeats; a detail may differ.
Sequence of UniProt Q96PF2 (whole entry, looked up): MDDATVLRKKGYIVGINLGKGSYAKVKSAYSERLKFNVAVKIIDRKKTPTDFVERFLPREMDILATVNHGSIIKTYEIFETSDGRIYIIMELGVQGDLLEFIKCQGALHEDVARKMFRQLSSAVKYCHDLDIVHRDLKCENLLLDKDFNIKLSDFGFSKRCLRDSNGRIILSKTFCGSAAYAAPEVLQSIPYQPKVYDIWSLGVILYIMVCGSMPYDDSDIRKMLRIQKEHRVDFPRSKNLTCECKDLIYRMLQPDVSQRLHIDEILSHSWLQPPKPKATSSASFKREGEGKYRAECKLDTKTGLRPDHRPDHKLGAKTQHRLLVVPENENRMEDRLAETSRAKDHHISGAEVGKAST
Sequence of UniProt Q9UEE5 (whole entry, looked up): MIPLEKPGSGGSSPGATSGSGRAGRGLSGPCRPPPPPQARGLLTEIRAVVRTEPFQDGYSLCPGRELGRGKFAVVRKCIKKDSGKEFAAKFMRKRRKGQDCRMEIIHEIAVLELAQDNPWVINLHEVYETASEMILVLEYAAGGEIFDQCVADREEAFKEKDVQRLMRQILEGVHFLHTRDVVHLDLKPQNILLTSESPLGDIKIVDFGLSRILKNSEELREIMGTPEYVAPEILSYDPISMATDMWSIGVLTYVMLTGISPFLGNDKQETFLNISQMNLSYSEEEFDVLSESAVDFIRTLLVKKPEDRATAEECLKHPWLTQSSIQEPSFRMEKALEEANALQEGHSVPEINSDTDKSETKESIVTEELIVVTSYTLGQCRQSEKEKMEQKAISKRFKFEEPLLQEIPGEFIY
Sequence of UniProt P54762 (whole entry, looked up): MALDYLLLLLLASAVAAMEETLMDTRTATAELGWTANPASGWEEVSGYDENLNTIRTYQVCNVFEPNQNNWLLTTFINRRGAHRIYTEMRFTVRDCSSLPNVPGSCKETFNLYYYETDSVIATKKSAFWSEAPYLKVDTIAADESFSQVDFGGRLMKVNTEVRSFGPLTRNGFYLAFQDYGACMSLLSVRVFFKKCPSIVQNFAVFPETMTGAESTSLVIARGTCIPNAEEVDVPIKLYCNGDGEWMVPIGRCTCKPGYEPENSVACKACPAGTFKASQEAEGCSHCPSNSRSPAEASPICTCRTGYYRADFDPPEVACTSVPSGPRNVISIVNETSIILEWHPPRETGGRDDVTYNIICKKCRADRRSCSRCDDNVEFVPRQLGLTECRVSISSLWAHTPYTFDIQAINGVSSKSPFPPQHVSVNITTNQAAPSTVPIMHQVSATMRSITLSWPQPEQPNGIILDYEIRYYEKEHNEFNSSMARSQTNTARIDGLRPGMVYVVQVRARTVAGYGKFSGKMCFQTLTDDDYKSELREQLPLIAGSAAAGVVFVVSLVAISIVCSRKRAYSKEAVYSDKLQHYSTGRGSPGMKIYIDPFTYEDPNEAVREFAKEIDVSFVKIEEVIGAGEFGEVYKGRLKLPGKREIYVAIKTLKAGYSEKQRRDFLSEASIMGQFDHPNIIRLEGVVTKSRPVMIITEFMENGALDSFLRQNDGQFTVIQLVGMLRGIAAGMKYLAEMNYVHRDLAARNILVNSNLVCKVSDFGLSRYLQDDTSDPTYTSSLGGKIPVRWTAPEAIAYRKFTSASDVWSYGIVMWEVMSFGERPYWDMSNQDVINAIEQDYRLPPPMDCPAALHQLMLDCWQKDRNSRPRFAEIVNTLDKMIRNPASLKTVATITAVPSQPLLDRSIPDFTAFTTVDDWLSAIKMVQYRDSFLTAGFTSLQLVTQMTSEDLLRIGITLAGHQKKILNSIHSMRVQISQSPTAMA
Sequence of UniProt Q9H3Y6 (whole entry, looked up): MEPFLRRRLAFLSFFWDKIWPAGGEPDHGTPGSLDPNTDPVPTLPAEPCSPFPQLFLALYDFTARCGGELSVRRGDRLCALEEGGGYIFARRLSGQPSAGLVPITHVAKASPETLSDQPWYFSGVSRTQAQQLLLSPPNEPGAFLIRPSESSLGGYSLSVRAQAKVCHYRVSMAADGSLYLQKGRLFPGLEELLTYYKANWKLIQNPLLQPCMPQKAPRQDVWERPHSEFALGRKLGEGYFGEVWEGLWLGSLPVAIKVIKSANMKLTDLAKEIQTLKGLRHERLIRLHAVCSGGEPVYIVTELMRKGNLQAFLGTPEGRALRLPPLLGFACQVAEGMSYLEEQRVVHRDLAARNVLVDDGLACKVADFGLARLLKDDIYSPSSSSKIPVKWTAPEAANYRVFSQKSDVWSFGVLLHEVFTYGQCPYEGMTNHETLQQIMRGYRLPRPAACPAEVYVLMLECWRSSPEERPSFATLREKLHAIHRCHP
Sequence of UniProt P11802 (whole entry, looked up): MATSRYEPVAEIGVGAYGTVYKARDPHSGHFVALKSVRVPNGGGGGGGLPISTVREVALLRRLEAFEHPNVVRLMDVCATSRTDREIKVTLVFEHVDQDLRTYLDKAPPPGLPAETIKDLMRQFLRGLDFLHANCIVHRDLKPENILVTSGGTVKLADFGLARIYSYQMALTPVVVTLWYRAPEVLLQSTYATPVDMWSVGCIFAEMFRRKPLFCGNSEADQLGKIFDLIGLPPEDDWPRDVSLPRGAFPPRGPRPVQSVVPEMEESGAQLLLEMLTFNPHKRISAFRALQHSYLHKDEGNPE
Sequence of UniProt P06493 (whole entry, looked up): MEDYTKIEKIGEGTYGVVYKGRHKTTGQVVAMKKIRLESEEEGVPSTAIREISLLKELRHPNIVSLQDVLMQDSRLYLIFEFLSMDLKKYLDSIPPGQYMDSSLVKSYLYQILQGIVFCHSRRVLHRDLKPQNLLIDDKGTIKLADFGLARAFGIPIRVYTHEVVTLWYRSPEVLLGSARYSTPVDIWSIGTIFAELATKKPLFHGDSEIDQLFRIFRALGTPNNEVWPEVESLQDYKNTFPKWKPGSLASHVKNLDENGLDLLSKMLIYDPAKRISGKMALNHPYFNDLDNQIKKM

Set 1 — read-out: ligand displacement; concentration: 10 µM
Target: Muscarinic acetylcholine receptor M1 (CHRM1, Homo sapiens, UniProt P11229)
Sequence of UniProt P11229 (whole entry, looked up): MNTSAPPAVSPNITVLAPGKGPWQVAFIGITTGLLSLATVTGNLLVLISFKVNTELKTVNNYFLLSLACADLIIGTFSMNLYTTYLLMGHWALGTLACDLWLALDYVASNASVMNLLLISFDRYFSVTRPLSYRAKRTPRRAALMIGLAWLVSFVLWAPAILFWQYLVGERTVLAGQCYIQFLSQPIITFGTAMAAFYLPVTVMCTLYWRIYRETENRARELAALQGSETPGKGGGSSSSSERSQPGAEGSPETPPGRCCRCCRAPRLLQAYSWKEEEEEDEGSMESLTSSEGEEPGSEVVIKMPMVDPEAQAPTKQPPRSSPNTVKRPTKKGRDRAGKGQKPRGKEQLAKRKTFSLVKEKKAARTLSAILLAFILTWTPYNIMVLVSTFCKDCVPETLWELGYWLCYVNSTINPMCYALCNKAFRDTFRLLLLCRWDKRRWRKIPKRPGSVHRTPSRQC
SMILES	inhibition
Cc1c(NC(=O)c2cc(C(N)=O)nc3cc(F)ccc23)c(C(F)(F)F)nn1Cc1ccc(C#N)cc1	28.2%
N#CC1(c2ccccn2)CCN(Cc2cc(C(=O)N3CCCC3)c(=O)n3ccccc23)CC1	-2.01%
COCCOc1nc(-c2ccc(Cl)nc2)nc2c1CN(C(=O)c1ncn3ccccc13)CC2	-4.03%
CC(=O)N1CCC(c2ccc(C(=O)NC3=NCCN3)cc2C(F)(F)F)CC1	-7.86%
c1ccc(N2CCN(Cc3nc4ccccc4[nH]3)CC2)nc1	-10.7%
CN1CCN(c2cnc3c(C4CCN(C(=O)c5ccc(OC(F)(F)F)cc5N)CC4)ncnc3c2)CC1	3.17%

Set 2 — read-out: enzyme activity; action: inhibitor; concentration: 0.5 µM; baseline: control
Compound: N/C(=N\[N+](=O)[O-])N/N=C\c1ccc(-c2cccc([N+](=O)[O-])c2)o1
target	remaining activity [%]
Ephrin type-B receptor 1 (EPHB1, Homo sapiens, UniProt P54762)	107
Tyrosine-protein kinase Srms (SRMS, Homo sapiens, UniProt Q9H3Y6)	90.2
Serine/threonine-protein kinase 17A (STK17A, Homo sapiens, UniProt Q9UEE5)	100
Cyclin-dependent kinase 1, with cyclin B (CDK1, Homo sapiens, UniProt P06493)	87.9
Cyclin-dependent kinase 4, with cyclin D3 (CDK4, Homo sapiens, UniProt P11802)	103
Testis-specific serine/threonine-protein kinase 2 (TSSK2, Homo sapiens, UniProt Q96PF2)	101

Set 3 — read-out: enzyme activity; action: inhibitor; concentration: 10 µM
Target: Calcium/calmodulin-dependent protein kinase type II subunit alpha (CAMK2A, Homo sapiens, UniProt Q9UQM7)
Sequence of UniProt Q9UQM7 (whole entry, looked up): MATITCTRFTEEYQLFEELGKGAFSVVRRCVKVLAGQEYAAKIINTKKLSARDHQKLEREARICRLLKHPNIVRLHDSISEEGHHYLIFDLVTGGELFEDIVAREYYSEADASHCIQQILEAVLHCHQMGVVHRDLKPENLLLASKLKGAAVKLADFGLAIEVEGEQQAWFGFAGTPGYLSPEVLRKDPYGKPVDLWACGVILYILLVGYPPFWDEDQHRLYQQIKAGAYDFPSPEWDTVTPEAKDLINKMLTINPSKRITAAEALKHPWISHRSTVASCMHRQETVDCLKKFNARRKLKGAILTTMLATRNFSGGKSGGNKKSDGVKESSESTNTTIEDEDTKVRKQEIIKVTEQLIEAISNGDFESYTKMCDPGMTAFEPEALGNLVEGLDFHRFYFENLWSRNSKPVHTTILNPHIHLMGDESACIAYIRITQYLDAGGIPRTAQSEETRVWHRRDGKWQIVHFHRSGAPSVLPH
Structure (SMILES)	inhibition
NC(=O)Cc1ccccc1	5%
C[C@H]1O[C@H](O[C@H]2[C@H](O)[C@@H](O)[C@@H](O)[C@H](O)[C@@H]2O)[C@@H](N)C[C@@H]1NC(=N)C(=O)O	-15%
COC(=O)C1=CO[C@@H](C)[C@@H]2CN3CC[C@@]4(C(=O)Nc5ccccc54)[C@@H]3C[C@H]12	-83%
c1ccc2c(c1)cc1ccc3cccc4ccc2c1c34	-19%
O=c1cccc2n1C[C@H]1C[C@@H]2CN2CCCC[C@@H]12	-8%
O=CN1C[C@@H]2C[C@H](C1)c1cccc(=O)n1C2	10%
C[C@@H]1O[C@@H](O[C@@H]2C=C3CC[C@@H]4[C@H](CC[C@]5(C)[C@@H](c6ccc(=O)oc6)CC[C@]45O)[C@@]3(C)CC2)[C@H](O)[C@H](O)[C@H]1O	19%

Set 4
SMILES: CC(C)S(=O)(=O)c1cc2c(Nc3ccc4sc(C5CCCC5)nc4c3)ccnc2cc1OCCO
cell line	assay	setting	viability
L929	CCK-8	0.781 µM	97.9% and 101% and 99% and 103%
L929	necroptosis protection, CCK-8	0.625 µM, added: TNF-α plus zVAD	95.4%
L929 RIPK3 knockout		100 µM, added: zVAD	11.6% and 17.8% and 14% and 11.5% and 13.9%
L929	CCK-8	12.5 µM, added: zVAD	81.6% and 96.3% and 78.5% and 76.4%
L929 RIPK3 knockout		1.563 µM, added: zVAD	96.2% and 97.9% and 90.2% and 92.4% and 92%
L929 RIPK3 knockout		3.125 µM	99.8% and 89.5% and 90.9% and 96.5%
L929	CCK-8	3.125 µM	95.9% and 98% and 97.7% and 99.2%
L929	necroptosis protection, CCK-8	0.039 µM, added: TNF-α plus zVAD	46.6%
L929	necroptosis protection, CCK-8	0.37 µM, added: TNF-α plus zVAD	45.1%
L929	CCK-8	0.781 µM, added: zVAD	90.6% and 87.1% and 93.3% and 87.9% and 93.5%
L929 RIPK3 knockout		50 µM	56.4% and 53.9% and 53.8% and 55.1%
L929	CCK-8	25 µM	57.6% and 77.2% and 56.6% and 55.7%
L929	necroptosis protection, CCK-8	0.00457 µM, added: TNF-α plus zVAD	27%
L929 RIPK3 knockout		3.125 µM, added: zVAD	94.7% and 92.9% and 88.3%
L929 RIPK3 knockout		12.5 µM, added: zVAD	78.2% and 87.2% and 80.7% and 90.9%
L929	necroptosis protection, CCK-8	2.5 µM, added: TNF-α plus zVAD	101%
L929	CCK-8	12.5 µM	77% and 92.3% and 74% and 73.9%
L929	necroptosis protection, CCK-8	1.111 µM, added: TNF-α plus zVAD	80.2%
L929	necroptosis protection, CCK-8	0.041 µM, added: TNF-α plus zVAD	31.2%

A few entries again (set 1):
SMILES	inhibition
COCCOc1nc(-c2ccc(Cl)nc2)nc2c1CN(C(=O)c1ncn3ccccc13)CC2	-4.03%
CC(=O)N1CCC(c2ccc(C(=O)NC3=NCCN3)cc2C(F)(F)F)CC1	-7.86%
c1ccc(N2CCN(Cc3nc4ccccc4[nH]3)CC2)nc1	-10.7%
CN1CCN(c2cnc3c(C4CCN(C(=O)c5ccc(OC(F)(F)F)cc5N)CC4)ncnc3c2)CC1	3.17%
